Values quoted from earlier work that unrelated publications cite.
Each line is one published result; not all experiments were run side by side. ± gives the spread as reported.

Compound | assay | system | conditions | scale | measurement | result
C/C(N)=N/C(=N\S(=O)(=O)c1ccc(C(F)(F)F)cc1)N1C[C@H](c2ccccc2)C(c2ccc(Cl)cc2)=N1 | – | Sprague-Dawley rat | – | – | t1/2 | 4 h
Cc1ccc2c(c1)nc(CCN1C(=O)c3cccc4cccc(c34)C1=O)n2-c1ccncc1 | – | Sprague-Dawley rat | oral, 10 mg/kg | – | Tmax | 0.25 h
Ic1cc2nc(c1)CNCCNCCNC2 | – | aqueous solution | Cu(II) 1 µM, ligand 10 µM | – | pCu | 15.6
CC1(N(CC(=O)O)CC(=O)O)CN(CC(=O)O)CCN(CC(=O)O)C1 | pH-potentiometry, item: logK4H | 0.15 M NaCl | 25 °C | – | protonation constant (log) | 2.33
COc1ccc(Nc2nc(Nc3ccc(OCC[18F])cc3)ncc2Br)cc1 | – | S180 tumour-bearing mice, brain | intravenous, 5 min | – | tissue uptake | 1.2 ± 0.12 %ID/g
FC(F)(F)c1cc2nc(c1)CNCCNCCNC2 | – | aqueous solution | Cu(II) 1 µM, ligand 10 µM | – | pCu | 15.6
CCn1c(=O)c(-c2cc(NC(=O)Nc3ccccc3)c(F)cc2Br)cc2cnc(N)cc21 | – | human patients | 150 mg once daily, geometric mean | – | Cmax | 804 ± 45.5 ng/mL
O=C(O)CCCCC1(N(CC(=O)O)CC(=O)O)CN(CC(=O)O)CCN(CC(=O)O)C1 | pH-potentiometry, item: logK3H | 0.15 M NaCl | 25 °C | – | protonation constant (log) | 4.68
COc1cc2nc(c1)CNCCNCCNC2.[Cu+2] | cyclic voltammetry | DMF | scan rate 100 mV/s | relative to: Fc/Fc+ | anodic peak potential | -906 mV

A few entries again:
Compound | assay | system | conditions | scale | measurement | result
COc1ccc(Nc2nc(Nc3ccc(OCC[18F])cc3)ncc2Br)cc1 | – | S180 tumour-bearing mice, brain | intravenous, 5 min | – | tissue uptake | 1.2 ± 0.12 %ID/g
